Measurements from different studies.
Each numbered part is a random draw from the data of one study; scales do not carry over between parts.
Chain of UniProt Q9UK32 (whole entry, looked up): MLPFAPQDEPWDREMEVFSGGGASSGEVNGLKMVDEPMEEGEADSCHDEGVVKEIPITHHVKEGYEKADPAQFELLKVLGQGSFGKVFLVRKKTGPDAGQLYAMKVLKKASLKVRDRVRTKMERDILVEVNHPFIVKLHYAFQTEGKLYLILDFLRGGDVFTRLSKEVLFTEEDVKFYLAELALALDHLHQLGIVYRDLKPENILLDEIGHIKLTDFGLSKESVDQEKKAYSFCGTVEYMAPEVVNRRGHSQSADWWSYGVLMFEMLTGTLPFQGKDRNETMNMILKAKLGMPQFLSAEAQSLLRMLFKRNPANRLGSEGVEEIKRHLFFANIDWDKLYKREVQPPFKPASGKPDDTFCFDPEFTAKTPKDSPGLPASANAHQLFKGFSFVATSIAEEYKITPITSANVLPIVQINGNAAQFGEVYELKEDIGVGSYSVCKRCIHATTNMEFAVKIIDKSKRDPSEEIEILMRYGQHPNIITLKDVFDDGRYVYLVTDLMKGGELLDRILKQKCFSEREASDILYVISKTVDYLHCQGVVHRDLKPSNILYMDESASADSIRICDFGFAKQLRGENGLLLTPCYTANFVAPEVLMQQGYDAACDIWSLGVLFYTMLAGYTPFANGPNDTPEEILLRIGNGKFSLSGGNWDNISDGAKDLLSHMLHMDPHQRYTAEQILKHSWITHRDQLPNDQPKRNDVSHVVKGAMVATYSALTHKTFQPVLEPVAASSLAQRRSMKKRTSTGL
Chain of UniProt P22455 (whole entry, looked up): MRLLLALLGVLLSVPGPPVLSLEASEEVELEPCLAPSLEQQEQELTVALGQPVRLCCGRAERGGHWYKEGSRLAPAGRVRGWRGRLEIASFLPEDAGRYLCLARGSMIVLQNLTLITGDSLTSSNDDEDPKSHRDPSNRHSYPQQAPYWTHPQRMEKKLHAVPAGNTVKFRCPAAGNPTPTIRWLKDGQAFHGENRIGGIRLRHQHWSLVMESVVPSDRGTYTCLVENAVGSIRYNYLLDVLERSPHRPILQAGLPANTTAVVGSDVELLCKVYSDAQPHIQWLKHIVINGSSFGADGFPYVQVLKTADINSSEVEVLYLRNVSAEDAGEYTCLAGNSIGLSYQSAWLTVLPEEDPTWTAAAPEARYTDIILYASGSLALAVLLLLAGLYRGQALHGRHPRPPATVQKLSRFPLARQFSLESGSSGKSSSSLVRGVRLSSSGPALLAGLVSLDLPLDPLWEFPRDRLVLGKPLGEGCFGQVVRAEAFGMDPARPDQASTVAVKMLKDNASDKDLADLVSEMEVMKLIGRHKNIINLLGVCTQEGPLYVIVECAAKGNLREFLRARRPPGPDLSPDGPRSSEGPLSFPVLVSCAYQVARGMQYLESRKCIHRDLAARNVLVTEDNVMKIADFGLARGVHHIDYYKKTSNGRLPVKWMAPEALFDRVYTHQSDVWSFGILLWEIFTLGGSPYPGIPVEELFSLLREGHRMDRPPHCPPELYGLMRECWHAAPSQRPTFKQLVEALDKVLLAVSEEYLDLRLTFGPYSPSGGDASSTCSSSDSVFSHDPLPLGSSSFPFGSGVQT
Chain of UniProt P54756 (whole entry, looked up): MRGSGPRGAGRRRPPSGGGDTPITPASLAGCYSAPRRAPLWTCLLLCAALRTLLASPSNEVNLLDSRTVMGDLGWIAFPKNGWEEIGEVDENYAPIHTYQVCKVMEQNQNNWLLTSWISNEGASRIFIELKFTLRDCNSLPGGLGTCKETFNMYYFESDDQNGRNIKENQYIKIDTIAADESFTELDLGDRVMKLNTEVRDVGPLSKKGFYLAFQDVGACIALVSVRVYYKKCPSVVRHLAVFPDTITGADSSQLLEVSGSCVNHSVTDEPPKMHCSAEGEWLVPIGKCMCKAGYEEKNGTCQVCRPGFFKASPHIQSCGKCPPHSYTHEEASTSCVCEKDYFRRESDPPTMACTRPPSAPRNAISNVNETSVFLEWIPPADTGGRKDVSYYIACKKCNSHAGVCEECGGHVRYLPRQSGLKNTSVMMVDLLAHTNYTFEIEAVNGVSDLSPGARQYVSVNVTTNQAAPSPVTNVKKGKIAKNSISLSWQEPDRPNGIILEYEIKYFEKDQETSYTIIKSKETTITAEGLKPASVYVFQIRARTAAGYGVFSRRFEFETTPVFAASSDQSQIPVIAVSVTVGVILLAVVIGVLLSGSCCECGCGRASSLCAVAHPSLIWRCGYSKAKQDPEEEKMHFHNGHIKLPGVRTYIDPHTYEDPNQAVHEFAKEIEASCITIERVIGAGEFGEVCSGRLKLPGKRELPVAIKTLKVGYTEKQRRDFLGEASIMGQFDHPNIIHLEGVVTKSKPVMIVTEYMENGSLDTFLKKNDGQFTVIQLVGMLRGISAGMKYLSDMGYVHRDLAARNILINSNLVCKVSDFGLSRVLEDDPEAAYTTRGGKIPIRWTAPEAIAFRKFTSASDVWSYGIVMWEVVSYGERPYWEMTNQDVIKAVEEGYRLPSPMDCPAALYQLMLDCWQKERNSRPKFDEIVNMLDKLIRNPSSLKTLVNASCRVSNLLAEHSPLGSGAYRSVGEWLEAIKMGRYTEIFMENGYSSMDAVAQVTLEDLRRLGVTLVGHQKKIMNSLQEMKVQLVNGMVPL
Chain of UniProt P78362 (whole entry, looked up): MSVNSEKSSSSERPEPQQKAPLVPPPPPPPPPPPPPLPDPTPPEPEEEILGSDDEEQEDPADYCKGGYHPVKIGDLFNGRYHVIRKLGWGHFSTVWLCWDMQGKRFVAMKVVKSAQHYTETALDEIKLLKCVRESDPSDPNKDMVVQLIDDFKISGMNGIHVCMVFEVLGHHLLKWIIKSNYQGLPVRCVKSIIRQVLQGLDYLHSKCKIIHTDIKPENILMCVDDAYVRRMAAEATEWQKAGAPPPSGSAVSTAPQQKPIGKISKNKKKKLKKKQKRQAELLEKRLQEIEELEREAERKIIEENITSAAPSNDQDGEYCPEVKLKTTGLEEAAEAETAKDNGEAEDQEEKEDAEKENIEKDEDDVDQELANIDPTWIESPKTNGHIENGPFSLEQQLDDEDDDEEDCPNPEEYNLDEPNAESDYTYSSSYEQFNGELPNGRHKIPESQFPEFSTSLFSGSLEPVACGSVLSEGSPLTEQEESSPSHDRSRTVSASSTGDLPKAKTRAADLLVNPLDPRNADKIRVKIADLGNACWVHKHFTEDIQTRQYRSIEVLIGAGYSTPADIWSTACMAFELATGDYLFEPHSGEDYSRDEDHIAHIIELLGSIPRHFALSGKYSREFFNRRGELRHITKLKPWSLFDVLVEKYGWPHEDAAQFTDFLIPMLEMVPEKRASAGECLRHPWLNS
Chain of UniProt Q9UF33 (whole entry, looked up): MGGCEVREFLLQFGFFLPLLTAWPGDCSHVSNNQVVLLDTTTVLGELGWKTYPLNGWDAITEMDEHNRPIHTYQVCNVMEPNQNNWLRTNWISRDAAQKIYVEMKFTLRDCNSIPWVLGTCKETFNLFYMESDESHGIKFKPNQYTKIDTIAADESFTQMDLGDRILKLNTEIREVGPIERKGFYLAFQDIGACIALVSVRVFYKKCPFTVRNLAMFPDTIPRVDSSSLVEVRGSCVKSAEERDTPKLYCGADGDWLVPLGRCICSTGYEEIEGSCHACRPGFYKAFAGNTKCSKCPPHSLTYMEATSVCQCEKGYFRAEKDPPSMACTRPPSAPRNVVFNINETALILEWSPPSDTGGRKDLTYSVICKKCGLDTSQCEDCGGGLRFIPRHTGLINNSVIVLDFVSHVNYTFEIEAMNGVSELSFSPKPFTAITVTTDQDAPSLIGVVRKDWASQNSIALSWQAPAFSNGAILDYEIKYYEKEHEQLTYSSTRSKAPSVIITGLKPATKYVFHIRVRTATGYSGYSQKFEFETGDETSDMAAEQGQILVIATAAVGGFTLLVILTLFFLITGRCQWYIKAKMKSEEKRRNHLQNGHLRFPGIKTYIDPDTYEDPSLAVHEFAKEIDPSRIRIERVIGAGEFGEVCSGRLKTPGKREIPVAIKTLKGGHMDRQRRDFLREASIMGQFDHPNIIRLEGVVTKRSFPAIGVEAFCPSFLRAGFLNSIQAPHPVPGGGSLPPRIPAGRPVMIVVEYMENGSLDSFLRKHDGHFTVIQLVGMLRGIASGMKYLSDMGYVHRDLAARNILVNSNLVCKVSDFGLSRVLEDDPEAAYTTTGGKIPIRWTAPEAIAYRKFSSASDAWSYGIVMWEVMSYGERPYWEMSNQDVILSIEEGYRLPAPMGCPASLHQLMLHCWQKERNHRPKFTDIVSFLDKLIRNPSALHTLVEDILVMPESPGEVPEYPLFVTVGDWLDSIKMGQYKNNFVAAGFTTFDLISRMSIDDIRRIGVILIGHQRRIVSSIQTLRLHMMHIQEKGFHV

Sample 1
Compound: CC(=O)N[C@@H](Cc1c[nH]c2ccccc12)C(=O)N[C@@H](CCC(=O)C=[N+]=[N-])C(=O)OC(C)C
Dose: dose not given
Relative to: vehicle
Measurement: log2 fold change
measured: 3-hydroxyisobutyrate; mouse, EL4 tumour-bearing, EL4 tumour: -0.339
metabolomics, measured: 5-methyluridine; mouse, EL4 tumour: -0.538
measured: 4-guanidinobutanoate; mouse, EL4 tumour-bearing, EL4 tumour: 0.0497
measured: dCMP; mouse, EL4 tumour-bearing, EL4 tumour: 0.526
metabolomics, measured: uridine 2'-monophosphate; mouse, EL4 tumour: 1.28
measured: 2'-deoxyguanosine 3'-monophosphate; mouse, EL4 tumour, tumour: 1.92
measured: beta-alanine; mouse, EL4 tumour-bearing, EL4 tumour: 0.289
measured: dihydroxyacetone phosphate; Mus musculus, EL4 tumour: 0.359
measured: N-methylproline; mouse, EL4 tumour-bearing, EL4 tumour: -0.395
measured: N-acetylaspartate; Mus musculus, EL4 tumour: 1.72

Sample 2
SMILES: C[C@H](c1ccnc(Nc2nc3ccc(-c4cc(N(C)C)ncn4)cc3[nH]2)c1)N1CCN(C(=O)CC(F)(F)F)CC1
Technique: competition with immobilised ligand
Tested at: 0.1 µM
Measurement: remaining binding
Receptor-type tyrosine-protein kinase FLT3 (FLT3, Homo sapiens, UniProt P36888, ITD); cell-free assay: 100%
Mitogen-activated protein kinase kinase kinase 7 (MAP3K7, Homo sapiens, UniProt O43318); cell-free assay: 85%
Phosphatidylinositol 4,5-bisphosphate 3-kinase catalytic subunit alpha isoform (PIK3CA, Homo sapiens, UniProt P42336, H1047L); cell-free assay: 100%
Tyrosine-protein kinase Fes/Fps (FES, Homo sapiens, UniProt P07332); cell-free assay: 75%
Serine/threonine-protein kinase MRCK beta (CDC42BPB, Homo sapiens, UniProt Q9Y5S2); cell-free assay: 100%
Cyclin-dependent kinase 17 (CDK17, Homo sapiens, UniProt Q00537); cell-free assay: 100%
Death-associated protein kinase 3 (DAPK3, Homo sapiens, UniProt O43293); cell-free assay: 90%
Ephrin type-A receptor 6 (EPHA6, Homo sapiens, UniProt Q9UF33); cell-free assay: 93%
Fibroblast growth factor receptor 4 (FGFR4, Homo sapiens, UniProt P22455); cell-free assay: 98%
Ephrin type-A receptor 5 (EPHA5, Homo sapiens, UniProt P54756); cell-free assay: 81%
Tyrosine-protein kinase ABL1, non-phosphorylated (ABL1, Homo sapiens, UniProt P00519, F317I); binding: 100%
BDNF/NT-3 growth factors receptor (NTRK2, Homo sapiens, UniProt Q16620); cell-free assay: 100%
Tyrosine-protein kinase ABL1, phosphorylated (ABL1, Homo sapiens, UniProt P00519, M351T); cell-free assay: 100%
Tyrosine-protein kinase Tec (TEC, Homo sapiens, UniProt P42680); binding: 100%
Phosphatidylinositol 3-kinase C2 domain-containing subunit gamma (PIK3C2G, Homo sapiens, UniProt O75747); cell-free assay: 94%
SRSF protein kinase 2 (SRPK2, Homo sapiens, UniProt P78362); cell-free assay: 100%
Serine/threonine-protein kinase LATS2 (LATS2, Homo sapiens, UniProt Q9NRM7); cell-free assay: 80%
Serine/threonine-protein kinase DCLK2 (DCLK2, Homo sapiens, UniProt Q8N568); cell-free assay: 85%
Ribosomal protein S6 kinase alpha-6, C-terminal kinase domain (RPS6KA6, Homo sapiens, UniProt Q9UK32); cell-free assay: 56%
Serine/threonine-protein kinase NIM1 (NIM1K, Homo sapiens, UniProt Q8IY84); cell-free assay: 100%

Sample 3
Target: Casein kinase I isoform gamma-1 (CSNK1G1, Homo sapiens, UniProt Q9HCP0)
Chain of UniProt Q9HCP0 (whole entry, looked up): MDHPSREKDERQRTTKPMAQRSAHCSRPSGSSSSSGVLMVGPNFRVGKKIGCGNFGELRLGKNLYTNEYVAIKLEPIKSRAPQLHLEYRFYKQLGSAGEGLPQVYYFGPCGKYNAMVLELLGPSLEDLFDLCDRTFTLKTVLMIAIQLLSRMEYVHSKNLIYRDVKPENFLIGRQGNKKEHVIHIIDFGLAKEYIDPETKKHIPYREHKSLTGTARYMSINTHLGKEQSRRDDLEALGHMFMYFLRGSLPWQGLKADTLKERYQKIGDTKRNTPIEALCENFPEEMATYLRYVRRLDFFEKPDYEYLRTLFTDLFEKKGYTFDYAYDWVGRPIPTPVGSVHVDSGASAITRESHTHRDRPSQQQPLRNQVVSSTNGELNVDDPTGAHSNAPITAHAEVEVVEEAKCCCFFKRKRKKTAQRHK
Effect on: enzyme activity
Action: inhibitor
Tested at: 0.5 µM
Relative to: control
Measurement: remaining activity
CN([C@@H](Cc1ccc(OS(=O)(=O)c2cccc3cnccc23)cc1)C(=O)N1CCN(c2ccccc2)CC1)S(=O)(=O)c1cccc2cnccc12: 102%
COc1cc2ncnc(Nc3cccc(Cl)c3)c2cc1OC: 99.9%
Cn1nc2c3c(cccc31)C(=O)c1ccccc1-2: 102%
N#Cc1c(NC(=O)c2cccc3ccccc23)sc2c1CCCC2: 109%
Ic1cccc(CSc2nnc(-c3ccncc3)o2)c1: 91.7%
Nc1cccc(-c2cc3c(Oc4cccc(O)c4)ncnc3[nH]2)c1: 102%
COc1cc2c(cc1OC)-c1[nH]nc(Nc3cccc(F)c3)c1C2: 77.8%

Sample 4
Structure (SMILES): COc1cc(C(=O)N2CCC(N3CCN(C)CC3)CC2)ccc1Nc1ncc2c(n1)N(C)c1ccccc1C(=O)N2C
Technique: KINOMEscan
Tested at: 10 µM
Relative to: DMSO control
Reading: lower = stronger binding
Measurement: binding
RIPK1: 99%
MLK3: 100%
RET: 100%
CSNK1A1: 100%
ULK1: 80%
DCAMKL3: 90%
GSK3A: 100%
TNK2: 18%
PIM1: 100%
PRKD3: 42%

For quick reference, copied from above (sample 2):
Tyrosine-protein kinase ABL1, phosphorylated (ABL1, Homo sapiens, UniProt P00519, M351T); cell-free assay: 100%
Death-associated protein kinase 3 (DAPK3, Homo sapiens, UniProt O43293); cell-free assay: 90%
Cyclin-dependent kinase 17 (CDK17, Homo sapiens, UniProt Q00537); cell-free assay: 100%
Tyrosine-protein kinase ABL1, non-phosphorylated (ABL1, Homo sapiens, UniProt P00519, F317I); binding: 100%
Fibroblast growth factor receptor 4 (FGFR4, Homo sapiens, UniProt P22455); cell-free assay: 98%
Phosphatidylinositol 4,5-bisphosphate 3-kinase catalytic subunit alpha isoform (PIK3CA, Homo sapiens, UniProt P42336, H1047L); cell-free assay: 100%
